Experimental data pooled from the literature.
Compare with care: the assays were run in different laboratories. ± gives the spread as reported.
P2RX4: P2X purinoceptor 4 (P2RX4, Homo sapiens, UniProt Q99571)
Chain of UniProt Q99571 (whole entry, looked up): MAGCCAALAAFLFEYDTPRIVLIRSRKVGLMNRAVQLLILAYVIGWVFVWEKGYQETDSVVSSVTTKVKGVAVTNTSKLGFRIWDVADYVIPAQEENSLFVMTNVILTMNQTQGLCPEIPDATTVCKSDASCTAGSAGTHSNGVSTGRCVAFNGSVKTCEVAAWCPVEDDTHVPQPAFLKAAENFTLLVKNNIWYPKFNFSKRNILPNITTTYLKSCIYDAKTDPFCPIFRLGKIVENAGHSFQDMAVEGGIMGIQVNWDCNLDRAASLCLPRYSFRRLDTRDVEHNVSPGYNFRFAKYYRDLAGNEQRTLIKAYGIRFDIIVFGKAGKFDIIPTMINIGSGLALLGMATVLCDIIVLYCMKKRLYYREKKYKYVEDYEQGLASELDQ
Proteasome subunit beta type-9: Proteasome subunit beta type-9 (Homo sapiens, UniProt P28065)
Chain of UniProt P28065 (whole entry, looked up): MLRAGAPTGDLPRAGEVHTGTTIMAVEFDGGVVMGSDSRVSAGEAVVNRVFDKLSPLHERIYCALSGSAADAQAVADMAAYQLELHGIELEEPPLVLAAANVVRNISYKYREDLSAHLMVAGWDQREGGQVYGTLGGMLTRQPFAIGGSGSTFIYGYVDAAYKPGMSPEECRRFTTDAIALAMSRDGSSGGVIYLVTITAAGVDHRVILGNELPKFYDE
pyrD: Dihydroorotate dehydrogenase (quinone) (pyrD, Acinetobacter baumannii, UniProt B7GZW7)
Chain of UniProt B7GZW7 (whole entry, looked up): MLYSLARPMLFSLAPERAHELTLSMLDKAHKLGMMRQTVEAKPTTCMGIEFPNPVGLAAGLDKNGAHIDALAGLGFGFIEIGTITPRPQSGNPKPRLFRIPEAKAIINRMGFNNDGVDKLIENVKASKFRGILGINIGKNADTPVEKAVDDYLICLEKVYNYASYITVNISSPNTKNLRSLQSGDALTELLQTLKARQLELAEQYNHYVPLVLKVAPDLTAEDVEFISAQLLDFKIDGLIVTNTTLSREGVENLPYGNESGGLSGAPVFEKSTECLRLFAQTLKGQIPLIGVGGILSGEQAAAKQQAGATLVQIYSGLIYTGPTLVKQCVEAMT
Probable G-protein coupled receptor 34: Probable G-protein coupled receptor 34 (Homo sapiens, UniProt Q9UPC5)
Chain of UniProt Q9UPC5 (whole entry, looked up): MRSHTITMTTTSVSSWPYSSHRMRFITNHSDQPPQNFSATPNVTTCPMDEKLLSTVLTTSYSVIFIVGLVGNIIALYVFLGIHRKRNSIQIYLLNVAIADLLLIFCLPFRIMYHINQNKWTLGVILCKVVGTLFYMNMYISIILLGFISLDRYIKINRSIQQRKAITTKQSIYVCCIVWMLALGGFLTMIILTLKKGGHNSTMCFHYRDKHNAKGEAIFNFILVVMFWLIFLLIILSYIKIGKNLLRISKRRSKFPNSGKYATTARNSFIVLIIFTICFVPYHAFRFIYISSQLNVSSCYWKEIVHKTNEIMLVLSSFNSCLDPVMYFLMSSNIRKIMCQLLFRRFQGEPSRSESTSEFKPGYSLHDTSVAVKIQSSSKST
PADI4: Protein-arginine deiminase type-4 (PADI4, Homo sapiens, UniProt Q9UM07)
Chain of UniProt Q9UM07 (whole entry, looked up): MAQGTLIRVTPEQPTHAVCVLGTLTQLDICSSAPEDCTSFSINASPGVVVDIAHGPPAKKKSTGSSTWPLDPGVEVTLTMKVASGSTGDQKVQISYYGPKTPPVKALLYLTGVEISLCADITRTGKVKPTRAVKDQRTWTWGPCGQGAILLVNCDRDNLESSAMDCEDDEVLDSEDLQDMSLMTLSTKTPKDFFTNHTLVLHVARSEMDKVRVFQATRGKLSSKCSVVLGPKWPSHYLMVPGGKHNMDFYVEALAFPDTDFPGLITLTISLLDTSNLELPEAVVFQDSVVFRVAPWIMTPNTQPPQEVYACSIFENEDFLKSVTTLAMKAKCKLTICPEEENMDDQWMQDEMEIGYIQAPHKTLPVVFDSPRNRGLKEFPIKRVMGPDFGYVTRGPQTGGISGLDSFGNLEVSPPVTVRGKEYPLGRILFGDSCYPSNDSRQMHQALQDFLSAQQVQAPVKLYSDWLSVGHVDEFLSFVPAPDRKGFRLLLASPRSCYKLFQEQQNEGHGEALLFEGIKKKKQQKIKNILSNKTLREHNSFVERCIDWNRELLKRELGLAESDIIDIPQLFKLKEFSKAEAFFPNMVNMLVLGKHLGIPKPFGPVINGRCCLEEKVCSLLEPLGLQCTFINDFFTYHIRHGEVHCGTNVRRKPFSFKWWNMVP
PSEN1 in γ-secretase complex: Presenilin-1, in γ-secretase complex (PSEN1, Homo sapiens, UniProt P49768)
SOD1 fully metallated: Superoxide dismutase [Cu-Zn], fully metallated (SOD1, Homo sapiens, UniProt P00441)
Chain of UniProt P00441 (whole entry, looked up): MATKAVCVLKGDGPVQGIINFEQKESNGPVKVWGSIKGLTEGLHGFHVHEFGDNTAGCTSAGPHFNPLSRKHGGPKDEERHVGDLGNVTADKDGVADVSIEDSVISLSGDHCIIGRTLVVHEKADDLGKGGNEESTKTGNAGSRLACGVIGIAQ
Chain of UniProt P10635 (whole entry, looked up): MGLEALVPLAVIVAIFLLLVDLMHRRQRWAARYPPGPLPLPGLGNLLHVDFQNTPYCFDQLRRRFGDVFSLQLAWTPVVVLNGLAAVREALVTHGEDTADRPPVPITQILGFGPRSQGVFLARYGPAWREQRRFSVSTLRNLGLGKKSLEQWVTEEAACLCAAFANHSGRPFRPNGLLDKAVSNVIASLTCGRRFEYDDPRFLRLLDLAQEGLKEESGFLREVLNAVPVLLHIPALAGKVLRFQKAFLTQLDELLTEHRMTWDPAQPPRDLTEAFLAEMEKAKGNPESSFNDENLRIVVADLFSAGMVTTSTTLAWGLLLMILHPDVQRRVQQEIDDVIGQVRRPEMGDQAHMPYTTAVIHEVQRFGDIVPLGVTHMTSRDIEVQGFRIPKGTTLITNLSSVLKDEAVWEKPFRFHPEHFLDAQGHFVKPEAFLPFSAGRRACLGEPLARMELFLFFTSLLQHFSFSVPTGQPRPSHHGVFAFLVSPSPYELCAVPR
Chain of UniProt Q8IWT6 (whole entry, looked up): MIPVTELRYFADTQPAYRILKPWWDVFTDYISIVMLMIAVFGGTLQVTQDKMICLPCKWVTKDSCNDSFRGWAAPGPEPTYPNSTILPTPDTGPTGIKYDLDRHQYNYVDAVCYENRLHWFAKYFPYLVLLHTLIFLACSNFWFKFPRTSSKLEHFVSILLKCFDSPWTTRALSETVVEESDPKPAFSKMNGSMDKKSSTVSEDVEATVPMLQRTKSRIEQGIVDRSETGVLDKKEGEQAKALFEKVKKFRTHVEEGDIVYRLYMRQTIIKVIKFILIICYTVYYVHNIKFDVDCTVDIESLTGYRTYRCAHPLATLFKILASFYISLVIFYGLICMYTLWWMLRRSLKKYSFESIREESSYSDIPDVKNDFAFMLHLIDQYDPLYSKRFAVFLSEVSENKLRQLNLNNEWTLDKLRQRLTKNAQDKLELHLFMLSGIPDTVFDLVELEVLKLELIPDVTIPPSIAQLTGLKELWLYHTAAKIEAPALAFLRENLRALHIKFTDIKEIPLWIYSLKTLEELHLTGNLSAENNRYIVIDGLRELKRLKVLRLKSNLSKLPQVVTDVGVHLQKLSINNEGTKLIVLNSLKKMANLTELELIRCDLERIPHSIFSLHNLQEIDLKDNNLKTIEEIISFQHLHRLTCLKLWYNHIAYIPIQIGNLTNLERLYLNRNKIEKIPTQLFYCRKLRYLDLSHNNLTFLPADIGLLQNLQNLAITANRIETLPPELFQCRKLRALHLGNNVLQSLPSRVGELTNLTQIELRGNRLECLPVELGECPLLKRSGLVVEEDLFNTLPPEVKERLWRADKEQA
Chain of UniProt Q9NSA0 (whole entry, looked up): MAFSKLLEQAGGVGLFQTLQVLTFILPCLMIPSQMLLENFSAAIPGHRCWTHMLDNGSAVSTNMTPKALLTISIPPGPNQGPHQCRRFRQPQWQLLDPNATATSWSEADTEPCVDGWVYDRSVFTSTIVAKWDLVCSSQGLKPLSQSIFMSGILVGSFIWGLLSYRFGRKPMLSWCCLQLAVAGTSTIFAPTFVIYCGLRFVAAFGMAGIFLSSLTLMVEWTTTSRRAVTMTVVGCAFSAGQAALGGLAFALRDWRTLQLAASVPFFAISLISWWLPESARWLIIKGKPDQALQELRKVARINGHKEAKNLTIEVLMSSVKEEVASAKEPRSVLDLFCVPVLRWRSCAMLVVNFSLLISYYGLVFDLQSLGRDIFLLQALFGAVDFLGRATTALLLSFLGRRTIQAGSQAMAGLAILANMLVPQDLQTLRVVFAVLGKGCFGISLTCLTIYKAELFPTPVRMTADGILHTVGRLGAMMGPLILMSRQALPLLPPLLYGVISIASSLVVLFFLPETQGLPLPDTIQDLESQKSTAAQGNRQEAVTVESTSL
Chain of UniProt Q9H0K1 (whole entry, looked up): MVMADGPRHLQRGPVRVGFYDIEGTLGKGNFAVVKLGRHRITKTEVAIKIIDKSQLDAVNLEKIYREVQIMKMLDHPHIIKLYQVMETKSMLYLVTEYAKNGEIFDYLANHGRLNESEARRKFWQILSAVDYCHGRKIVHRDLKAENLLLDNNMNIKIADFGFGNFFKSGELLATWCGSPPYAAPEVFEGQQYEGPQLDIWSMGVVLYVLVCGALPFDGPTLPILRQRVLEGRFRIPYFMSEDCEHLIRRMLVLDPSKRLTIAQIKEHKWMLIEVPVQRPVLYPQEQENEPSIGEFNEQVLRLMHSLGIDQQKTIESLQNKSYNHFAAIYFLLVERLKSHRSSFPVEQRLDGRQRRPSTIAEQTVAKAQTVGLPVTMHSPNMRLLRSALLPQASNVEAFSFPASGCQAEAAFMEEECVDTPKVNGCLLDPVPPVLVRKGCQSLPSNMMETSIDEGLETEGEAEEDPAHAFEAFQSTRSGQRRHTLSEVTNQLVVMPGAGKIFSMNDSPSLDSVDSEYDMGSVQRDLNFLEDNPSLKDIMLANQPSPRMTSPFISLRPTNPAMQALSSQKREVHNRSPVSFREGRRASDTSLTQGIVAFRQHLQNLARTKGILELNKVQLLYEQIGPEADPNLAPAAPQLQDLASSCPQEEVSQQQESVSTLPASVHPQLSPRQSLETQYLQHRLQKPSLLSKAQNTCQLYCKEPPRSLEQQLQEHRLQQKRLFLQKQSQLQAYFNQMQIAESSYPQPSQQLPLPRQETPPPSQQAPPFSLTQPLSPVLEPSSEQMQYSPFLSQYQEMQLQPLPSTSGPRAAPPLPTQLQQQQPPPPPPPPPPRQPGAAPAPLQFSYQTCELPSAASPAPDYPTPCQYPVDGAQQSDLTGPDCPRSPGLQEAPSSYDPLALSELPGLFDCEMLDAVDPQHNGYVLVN

| SMILES | tested on | assay | system | conditions | how to read | measurement | value |
| --- | --- | --- | --- | --- | --- | --- | --- |
| O=S(=O)(Cc1ccccc1)N1CCNCC1COc1ccc2ccccc2c1 (stereo not shown) | P2RX4 | calcium flux, inhibitor, Ca2+ flux | human cells |  |  | IC50 | 2.57 ± 0.36 µM |
| Cc1ncc(C(=O)N[C@@H](CC(C)C)C(=O)N[C@@H](CC2CCCC3CCCCC32)C(=O)N[C@H](/C=C/S(C)(=O)=O)Cc2ccc(CN)cc2)s1 (stereo partly shown) | Proteasome subunit beta type-9 | competitive ABPP | Raji cell lysate |  |  | IC50 | > 10 µM |
| Cc1cc(Nc2ccc(SC(F)(F)F)cc2)n2ncnc2n1 | pyrD | enzyme activity, inhibitor, DCIP steady-state rate |  |  |  | IC50 | 0.52 ± 0.16 µM |
| O=c1nc(SCc2cc(F)cc(C(F)(F)F)c2)nc(SCc2ccc3sccc3c2)[nH]1 | TOP2A (Homo sapiens, UniProt P11388) | ATPase activity, ATP-competitive inhibitor |  | with: ATP 0.75 mM |  | IC50 | 14 µM |
| Cc1ncc(C(=O)N[C@@H](CC2CCCCC2)C(=O)N[C@@H](CC2CCCCC2)C(=O)N[C@H](/C=C/S(C)(=O)=O)Cc2ccc(CN)cc2)s1 | Proteasome subunit beta type-9 | competitive ABPP | Raji cell lysate |  |  | IC50 | > 10 µM |
| CCCC[C@H](NC(=O)[C@H](C)c1c(C)[nH]c2ccc(O)cc12)c1ncc(-c2cc3ccccc3nc2OC)[nH]1 | MCHR1 (Homo sapiens, UniProt Q99705) | binding |  |  |  | IC50 | 9.47 µM |
| O=C(Nc1nccs1)C(c1cc(F)ccc1O)N1Cc2ccc(-c3ccc(N4CCNCC4)cc3)cc2C1=O (stereo not shown) | ERBB2 (Homo sapiens, UniProt P04626) |  |  |  |  | IC50 | 0.0014 ± 0.0004 µM |
| O=S(=O)(c1ccc(Cl)cc1)N1CCNCC1COc1ccc2ccccc2c1 (stereo not shown) | P2RX4 | calcium flux, inhibitor, Ca2+ flux | human cells |  |  | IC50 | 14.8 ± 2.6 µM |
| Cc1cc(Nc2ccc(S(F)(F)(F)(F)F)cc2)n2nc(C)nc2n1 | pyrD | enzyme activity, inhibitor, DCIP steady-state rate |  |  |  | IC50 | 0.77 ± 0.34 µM |
| CC(=O)c1cc([N+](=O)[O-])c(Sc2ccc(F)cc2F)s1 | USP21 (Homo sapiens, UniProt Q9UK80) | enzyme activity, inhibitor, MALDI-TOF DUB |  | 35 min preincubation, 30 °C |  | IC50 | 20.6 µM |
| CCCN1CCN(c2ccc(-c3cncc(Cl)c3N3CCC4(CCNC4=O)CC3)cc2)CC1 | Cyclin-dependent kinase 8, with cyclin C (CDK8, Homo sapiens, UniProt P49336) |  |  |  |  | IC50 | 0.007 µM |
| CCCNc1c2c([nH]c(=O)c1C(=O)OCC)CCC2 | Gag-Pol polyprotein, reverse transcriptase (gag-pol, Human immunodeficiency virus 1, UniProt P03366) | reverse transcriptase activity, inhibitor |  | recombinant wild-type enzyme |  | IC50 | 76.4 ± 2.9 µM |
| O=C(CCCCCCC(=O)Nc1ccc(CCF)cc1)NO | HDAC2 (Homo sapiens, UniProt Q92769) |  |  |  |  | IC50 | 0.446 µM |
| NC(=O)c1ccc[n+](C2OC(COP(=O)(O)OP(=O)(O)OCC3OC(n4cnc5c(=O)[nH]cnc54)C(O)C3O)C(O)C2O)c1 (stereo not shown) |  | binding, MIDAS equilibrium dialysis LC-MS | A2AR-BRIL thermostabilized | concentration not given | relative to: no-protein control | log2 fold change | -0.16 |
| CN1CCN(CCCNc2ncc(Cl)c(-c3cc4c(C(=O)NC5CC5)cccc4s3)n2)CC1 | Probable G-protein coupled receptor 34 | antagonist, Tango |  | with: LysoPS 5 µM |  | IC50 | > 10 µM |
| Nc1ccc(C(=O)Nc2ccc(-c3nc4ccc(NC(=O)c5ccc(N)cc5)cc4s3)cc2)cc1 | Moesin, with CD44 (Homo sapiens, UniProt P26038) | MSN-CD44 binding, inhibitor, TR-FRET |  |  |  | IC50 | 8.1 µM |
| CCn1c(-c2nc3ccc(C(=O)N4CCCC(N)C4)cc3n2C)cc2ccccc21 (stereo not shown) | PADI4 | binding, chemoproteomic bead capture dot-blot | NB-4 cell lysate |  |  | IC50 | > 10 µM |
| CCCC[C@@H](C=O)NC(=O)[C@H](CC(C)C)NC(=O)OCc1ccccc1 | PSEN1 in γ-secretase complex | gamma-secretase activity, inhibitor, AlphaLISA |  | with: Notch1 substrate |  | IC50 | 0.24 ± 0.06 µM |
| CCN(CC)CCCC(C)Nc1nc(C)cc(Nc2ccc3nc(C)cc(N)c3c2)n1 (stereo not shown) | Probable G-protein coupled receptor 34 | antagonist, Tango |  | with: LysoPS 5 µM |  | IC50 | > 10 µM |
| O=c1cc2oc3cc(O)c(-c4ccc(O)cc4O)cc3nc-2cc1-c1ccc(O)cc1O | SOD1 fully metallated | enzyme activity, inhibitor, XTT |  |  |  | IC50 | > 75 µM |
| Cc1cc(CS(=O)(=O)c2ccccc2)cc(OCc2ccc(CN3CCC[C@@H]3CO)cc2)c1 | Probable G-protein coupled receptor 34 | antagonist, Tango |  | with: LysoPS 5 µM |  | IC50 | > 10 µM |
| FC(F)(F)c1ccc(N2CCNCC2COc2ccc3c(c2)OCO3)cc1 (stereo not shown) | P2RX4 | Ca2+ flux, antagonist | human cells expressing P2RX4 | racemate tested |  | IC50 | 11 µM |
| CN1CCN(c2ccc(Nc3ncc4cc(C#N)c(=O)n(C5CCCC5)c4n3)cc2)CC1 | SIK2 (Homo sapiens, UniProt Q9H0K1) |  |  |  |  | IC50 | 0.0816 µM |
| O=C1C(CC[S+]([O-])c2ccccc2)C(=O)N(c2ccccc2)N1c1ccccc1 (stereo not shown) | SLC22A11 (Homo sapiens, UniProt Q9NSA0) | transport, inhibitor | CHO expressing hOAT4 | 5 min, with: 6-carboxyfluorescein 25 µM |  | IC50 | 1.04 ± 0.5 µM |
| CC(C)C[C@H](NC(=O)c1ccc(-c2ccccc2)nc1)C(=O)N[C@@H](CC(C)C)C(=O)N[C@H](/C=C/S(C)(=O)=O)Cc1ccc(CN)cc1 | Proteasome subunit beta type-9 | competitive ABPP | Raji cell lysate |  |  | IC50 | > 10 µM |
| CC1(C)CC[C@]2(C(=O)O)CC[C@]3(C)C(=CC[C@@H]4[C@@]5(C)C[C@@H](O)[C@H](OC(=O)/C=C/c6ccc(O)cc6)C(C)(C)[C@@H]5CC[C@]43C)[C@@H]2C1 (relative stereo) | PSEN1 in γ-secretase complex | Aβ40 production, inhibitor, cell-free γ-secretase | HeLa membranes | with: APP-CTF substrate |  | IC50 | 1.17 µM |

| SMILES | tested on | assay | system | conditions | how to read | measurement | value |
| --- | --- | --- | --- | --- | --- | --- | --- |
| O=S(=O)(c1ccccc1F)N1CCNCC1COc1ccc2ccccc2c1 (stereo not shown) | P2RX4 | calcium flux, inhibitor, Ca2+ flux | human cells |  |  | IC50 | 2.4 ± 0.07 µM |
| Cc1nn(-c2nc3c(F)cc(F)cc3s2)c(O)c1C(c1ccc(C(F)(F)F)cc1)c1c(C)nn(-c2nc3c(F)cc(F)cc3s2)c1O | Cgas (Mus musculus, UniProt Q8C6L5) | enzyme activity, inhibitor, pyrophosphatase-coupled |  |  |  | IC50 | 3.73 µM |
| O=C(O)c1ccccc1 |  | binding, MIDAS equilibrium dialysis LC-MS | A2AR-BRIL thermostabilized | concentration not given | relative to: no-protein control | log2 fold change | -0.104 |
| C=CC(=O)Nc1cccc(Oc2nc(Nc3ccc(N4CCN(C)CC4)cc3)nc3ccoc23)c1 | SRC (Homo sapiens, UniProt P12931) |  |  |  |  | IC50 | 0.568 µM |
| NC(=O)c1nnn(Cc2cc(Cl)c(C(=O)c3ccc(Cl)cc3)c(Cl)c2)c1N | OPRM1 (Homo sapiens, UniProt P35372) | antagonist, cell-based |  |  |  | IC50 | 0.609 µM |
| C=CCNc1cc(-c2ccccc2)nc(-c2ccccn2)n1 | CLEC1B, with podoplanin (Homo sapiens, UniProt Q9P126) | podoplanin binding, inhibitor, AlphaScreen |  | 250 nM CLEC-2, with: 50 nM biotinylated podoplanin-Fc |  | IC50 | 6.3 µM |
| CC(C)C[C@H](NC(=O)[C@H](Cc1ccccc1)N=[N+]=[N-])C(=O)N[C@@H](CC(F)(F)F)C(=O)N[C@H](/C=C/S(C)(=O)=O)Cc1ccc(CN)cc1 | Proteasome subunit beta type-9 | competitive ABPP | Raji cell lysate |  |  | IC50 | > 10 µM |
| CCn1c(-c2nc3cc(C(=O)N4CCC[C@@H](N)C4)cc(OC)c3n2C)cc2cccnc21 | PADI4 | binding, chemoproteomic bead capture dot-blot | NB-4 cell lysate |  |  | IC50 | 0.047 µM |
| CC(C)C[C@H](NC(=O)[C@H](CCc1ccccc1)NC(=O)CN1CCOCC1)C(=O)N[C@@H](Cc1ccccc1)C(=O)N[C@@H](CC(C)C)C(=O)[C@@]1(C)CO1 | Proteasome subunit beta type-1/Psmb8, LMP7 subunit (Mus musculus, UniProt O09061+P28063) | proteasome subunit activity | Ba/F3 BCR-ABL1 H396P | 1 h pulse |  | IC50 | 0.00566 ± 0.00013 µM |
| C=C(C)[C@@H]1CC[C@]2(C)CC[C@]3(C)[C@H](CC[C@@H]4[C@@]5(C)CCCC(C)(C)[C@@H]5CC[C@]43C)[C@@H]12 | MAOB (Homo sapiens, UniProt P27338) | enzyme activity, inhibitor |  | with: kynuramine 50 µM |  | IC50 | > 100 µM |
| CC(C)C[C@H](NC(=O)c1cc(Cl)ccc1Cl)C(=O)N[C@@H](CC(C)C)C(=O)N[C@H](/C=C/S(C)(=O)=O)Cc1ccc(CN)cc1 | Proteasome subunit beta type-9 | competitive ABPP | Raji cell lysate |  |  | IC50 | > 10 µM |
| CC(C)CCC[C@@H](C)[C@H]1CC[C@H]2[C@@H]3C[C@@H](NCCc4c[nH]cn4)[C@@]4(O)C[C@@H](O)CC[C@]4(C)[C@H]3CC[C@]12C | Epoxide hydrolase 1 (Ephx1, Rattus norvegicus, UniProt P07687) | enzyme activity, inhibitor |  |  |  | IC50 | > 100 µM |
| CC(C)C[C@H](NC(=O)CN1CCOCC1)C(=O)N[C@@H](CC(C)C)C(=O)N[C@H](/C=C/S(C)(=O)=O)Cc1ccc(CN)cc1 | Proteasome subunit beta type-9 | competitive ABPP | Raji cell lysate |  |  | IC50 | > 10 µM |
| Nc1nc(=O)n([C@H]2C[C@H](O)[C@@H](CO)O2)cc1CN(CC[C@H](N)C(=O)O)C[C@H]1O[C@@H](n2cnc3c(N)ncnc32)[C@H](O)[C@@H]1O | DNMT1 (Homo sapiens, UniProt P26358) |  |  | truncated enzyme, with: 26 bp hemimethylated DNA, SAM 1 µM |  | IC50 | > 100 µM |
| O=C(Nc1ccc(F)cc1)N1CCNCC1COc1ccc2c(c1)OCO2 (stereo not shown) | P2RX4 | calcium flux, inhibitor, Ca2+ flux | human cells |  |  | IC50 | 1.2 ± 0.08 µM |
| CC(C)NC(=O)COc1cccc(-c2nc(Nc3ccc4[nH]ncc4c3)c3ccccc3n2)c1 | UGT1A6 (Homo sapiens, UniProt P19224) | enzyme activity, inhibitor | recombinant microsomes | with: diclofenac |  | IC50 | > 10 µM |
| COc1cc2nccc(Oc3ccc(NC(=O)c4cc5c(n(-c6ccccc6)c4=O)CCCC5=O)nc3)c2cc1OC | FGR (Homo sapiens, UniProt P09769) | cell viability, CellTiter-Glo | Ba/F3 expressing recombinant kinase | 48 h |  | IC50 | > 0.1 µM |
| Cc1nc(-c2cnc(NC(C)C)n(C)c2=O)ccc1Oc1ccnc(-c2cnn(C)c2)c1 | Cytochrome P450 2D6 (CYP2D6, Homo sapiens, UniProt P10635) | direct inhibition, inhibitor |  | no preincubation |  | IC50 | > 100 µM |
| O=S(=O)(c1ccc(F)cc1)N1CCNCC1COc1ccc2c(c1)OCO2 (stereo not shown) | P2RX4 | calcium flux, inhibitor, Ca2+ flux | human cells |  |  | IC50 | 3.31 ± 0.79 µM |
| Cc1oc(-c2ccccc2Cl)nc1C[S+]([O-])CC(=O)NCc1ccc2c(c1)OCO2 (stereo not shown) | Probable G-protein coupled receptor 34 | antagonist, Tango |  | with: LysoPS 5 µM |  | IC50 | > 10 µM |
| FC(F)(F)CN1CC(n2cc(Oc3ccn4nc(Cl)cc4n3)cn2)C1 | CACNA1C (Homo sapiens, UniProt Q13936) | ion current |  |  |  | IC50 | > 30 µM |
| COc1ccccc1S(=O)(=O)N1CCNCC1COc1ccc2ccccc2c1 (stereo not shown) | P2RX4 | calcium flux, inhibitor, Ca2+ flux | human cells |  |  | IC50 | > 10 µM |
| CC1Cc2ccccc2N1NC(=O)c1ccc(Cl)c(S(N)(=O)=O)c1 (stereo not shown) | SOD1 fully metallated | enzyme activity, inhibitor, XTT |  |  |  | IC50 | > 75 µM |
| COc1cc(C(=O)NS(=O)(=O)c2ccccc2C)ccc1Cc1cn(C)c2ccc(NC(=O)OC3CCCC3)cc12 | LRRC8A/LRRC8C (Homo sapiens, UniProt Q8IWT6+Q8TDW0) | ion current, inhibitor, whole-cell patch clamp | HCT116 LRRC8 knockout, transfected | -100 mV, LRRC8A/LRRC8C heteromer |  | IC50 | 15.2 µM |
| COc1ccc(OCC2CNCCN2c2ccc(F)cc2)cc1OC (stereo not shown) | P2RX4 | Ca2+ flux, antagonist | human cells expressing P2RX4 | racemate tested |  | IC50 | > 100 µM |
| CSc1ccccc1C(=O)NCCn1cc(C(=O)NCc2cccc(C)n2)c(=O)c2cc3c(cc21)OCO3 | Cytochrome P450 2C9 (CYP2C9, Homo sapiens, UniProt P11712) | enzyme activity, inhibitor | human liver microsomes | 20 min, 30 min NADPH preincubation, with: diclofenac 5 µM |  | IC50 | > 100 µM |
